Measurements collected from several papers.
Each line is one published result; not all experiments were run side by side. ± gives the spread as reported.
Technique: steady-state kinetics
B1: PYCR2 R119C (Homo sapiens, UniProt Q96C36); chain MSVGFIGAGQLAYALARGFTAAGILSAHKIIASSPEMNLPTVSALRKMGVNLTRSNKETVKHSDVLFLAVKPHIIPFILDEIGADVQARHIVVSCAAGVTISSVEKKLMAFQPAPKVICCMTNTPVVVQEGATVYATGTHALVEDGQLLEQLMSSVGFCTEVEEDLIDAVTGLSGSGPAYAFMALDALADGGVKMGLPRRLAIQLGAQALLGAAKMLLDSEQHPCQLKDNVCSPGGATIHALHFLESGGFRSLLINAVEASCIRTRELQSMADQEKISPAALKKTLLDRVKLESPTVSTLTPSSPGKLLTRSLALGGKKD
B2: enzyme (Pseudomonas aeruginosa, UniProt Q9HTP2); chain MTTLTRADWEARAKDLKIEGRAFVNGEYSNAASGETFDCLSPVDGRFLAKVASCDLADAEQAVKVARNAFDSGAWSRLAPAKRKQTMIRFADLLLENAEELALLETLDMGKPISDSLHIDVASAANSLRWSAEAIDKIYDEVAATPHAELGLVTREPVGVVAAIVPWNFPLLMSCWKLGPALATGNSVILKPSEKSPLTAIRIAQLAVEAGIPKGVFNVLPGYGHTVGKALALHMDVDTLVFTGSTKIAKQLMVYAGESNMKRVWLEAGGKSPNIVFADAPDLKAAAEAAAGAIAFNQGEVCTAGSRLLVERSIKDKFLPLVIEALKGWKPGNPLDPETNVGALVDTQQMNTVLSYIEAGHNDGAKLVAGGKRTLEETGGTYVEPTIFDGVTNAMKIAREEIFGPVLSVIEFEDAEEAVRIANDTPYGLAAAVWTSNLSKAHLTAKALRAGSVWVNQYDGGDMTAPFGGFKQSGNGRDKSLHAFDKYTELKATWIKL
B3: enzyme (UniProt A0A6P1VWL4); chain QTSYQPTPDNLAARKAFQDDKFGLFIHWGVYSILGDGEWVMNQRQIPIKDYEKLPTFFNPTAFDAKEWVTMAKNAGMKYITITSKHHDGFAMYDSKVSDYDIVDRTPYKKDVLKALADECRAQGIKLFFYHSHLDWHHPDYFPRGQTGKTAGRPESGDFDKYLTYMDTQLSELLTNYGPVGGIWFDGWWDQSAHDKNDPHKTVVDWKLDRTYSLIHKLQPAALIGNNHHVAPFPGEDFQMFEKDLPGQNKTGFSGESVIGQLPLETCETMNGAWGFNIKDNRYKSTKDLVQYLVKAAGHNANFLLNVGPMPNGKIQPEFVKTLAEVGQWMQKNGETIYGTRGGPVPARDWGVTTAVGNRVFVHILNWEDRQLTLPPVSGKIRSAKLFADKSPVKVVQTPEGIVLTMNSAPSADATDTIIELEMAPEVAKK
B4: enzyme (Kluyveromyces lactis, UniProt Q6CSZ6); chain MSSLDINEQRALIKSAHRYISEKLEDHFSSEFLPKALVICGSGLSGISTKIADEPKPLILSYSTIPGFKVSTVPGHSGELIFGYMNGAPVVLMNGRLHSYEGHSLAETVHPIRALHLLGSINVLIVTNAAGGINASFKAGDLMCVYDHINFPGLCGFHPLRGANFDEFGPRFLATSDAYDLELRKLLFSKKKELNIERKIHEGTYSYVHGPTFESRAESRFLRLAGTDAVGMSTVPEVVTARHCGWRVLALSLITNECVVDPPASAHDENPVPIQEGKATHEEVLENSAKASKDVQELIFSVVAEI
B5: enzyme (Homo sapiens, UniProt P50583); chain ALRACGLIIFRRCLIPKVDNNAIEFLLLQASDGIHHWTPPKGHVEPGEDDLETALRETQEEAGIEAGQLTIIEGFKRELNYVARNKPKTVIYWLAEVKDYDVEIRLSHEHQAYRWLGLEEACQLAQFKEMKAALQEGHQFLCSIEA
B6: enzyme (Sargassum horneri, UniProt A0A097IUG6); chain SPMAVASPSGFQKAMKTTLSSLGIDKATGITKPTTIYRNLPYPEVFKHEEQNKEGEVTKNGTFCVSTGQFTGRSPKDKYFVKQAPSDGKLDWGKINKGVASEVYKNIYDKAVKHYNTNVDKMYVFDGYCGTSPKSRKNVRIITELAWQHHFAKNMFIRPETEEEVANFVPDFTIINACKIVNEDYKELGLNSEVAVVFNVEESKAVITGTWYGGEMKKGIFSMMNYWLPLDGVMSMHCSANKGKDGDTALFFGLSGTGKTTLSADPARYLIGDDEHGWDDDGIFNFEGGCYAKTVNLSRENEPEIYDAIKRDALLENVIIKKNGEPDYADVSRTENTRVSYPIYHIDNYEPSGMGDHPKSIVFLTCDAFGVLPPVSRLSPGQAMYHFLSGYTAKVAGTERGVTEPTPNFSAGFGAAFLTLHPTVYADLLQEKLDKHGTQCFLINTGWTGGGYGVGKRMSIKATRACVDAVLDGSINKTKFTKEPVFGFEVPQELPNVPSKVLNPREAWSDKASYDATRTKLGDMFKNNFTKFVKPGMTDYTAYGPK
B7: enzyme (UniProt P0DY30); chain ESPWIGVHFMVYTDKMLDQLAEQLPALSKRGVTHLILEINYHFAYKSHPELAPTNGITVVGAKKFADTARAHHIEIIPQINCLGHQSWKQNNAALLKHYPQFDETPGAYPDNKDIYCRSWCPQHPEVNRVVFALIDELIDAFEAKAFHVGMDEVFLIASEHCERCRGGDPAALFAKAVNDLHGHIVGKRGVQMLMWGDRLLDAEQTGYGKWEASGNGTAPAIDRIPKDIVLCDWHYEKRDRYPSLAVFLDKGFRVWPAGWKKPEAAEAFAAAARGCQNPRLLGYLCTTWGAVEIPNLADWPALLRPIEKIIAP
B8: aspC A106G/A17N/A218G/A278L/A281T/A8Q/D18E/F210I/F212I/F350Y/G15S/G249S/I187A/I279A/I29V/I33V/I341V/I5L/I68L/I71L/L46M/M321L/M380L/N285S/N30D/N64T/S129T/S135A/S273G/S351L/T100S/V125I/V136I/V375I/Y244C (Escherichia coli, UniProt P00509); chain MFENLTAQPADPILSLNELFRADERPGKVDLGVGVYKDETGKTPVMTSVKKAEQYLLENETTKTYLGLDGLPEFGRCTQELLFGKGSALINDKRARTAQSPGGTGGLRVAADFLAKNTSVKRVWISNPTWPNHKAIFNSAGLEVREYAYYDAENHTLDFDALINSLNEAQAGDVVLFHGCCHNPTGADPTLEQWQTLAQLSVEKGWLPLIDIAYQGFGRGLEEDAEGLRAFAAMHKELIVASSCSKNFSLYNERVGACTLVAADSETVDRAFGQMKALARTNYSSPPAHGASVVATILSNDALRAIWEQELTDMRQRIQRLRQLFVNTLQEKGANRDFSFVIKQNGMFSYLGLTKEQVLRLREEFGVYAVASGRINVAGLTPDNMAPLCEAIVAVL
B9: enzyme (Schizosaccharomyces pombe, UniProt P78804); chain MSTPYEPEFQQAYKEIVGSIESSKLFEVHPELKRVLPIISIPERVLEFRVTWEDDKGNCRVNTGYRVQFNSALGPYKGGLRFHPSVNLSILKFLGFEQIFKNALTGLPMGGGKGGSDFDPKGKSDNEIRRFSQAFMRQLFRYIGPQTDVPAGDIGVTGFVVMHMFGEYKRLRNEYSGVVTGKHMLTGGSNIRPEATGYGVVYYVKHMIEHRTKGAETLKGKRVAISGSGNVAQYAALKCIQEGAIVKSISDSKGVLIAKTAEGLVPEEIHEIMALKEKRASIADSASLCKKHHYIAGARPWTNVGEIDIALPCATQNEVSGEEAAALIKQGCRYVAEGSNMGSSAEAVEVFEKSRASGEGCWLAPGKAANAGGVAVSGLEMAQNAQFSTWTHAEVDAKLAGIMQNIFEQSTDVASKYCDSGSNNIPSLVDGANIAGFLKVATAMQAVGDWW
B10: enzyme (Azotobacter vinelandii, UniProt C1DN94); chain MSESPLRLDRLRDFVSALGELLDRHPDEESVLREGRSLLGELVRHDDWLPEEFAQPDPERYQQYLLHADSRQRFSVVSFVWGPGQTTPVHDHRVWGLIGMLRGAEDAQSFELGAEGLRPIGDPVRLSPGQVEAVSPRIGDIHRVFNASPDQPSISIHVYGANIGAVRRAVYLPDGSEKPFISGYSNQFLPNIWDQSKESARP

enzyme (Klebsiella pneumoniae, UniProt A6THV5)  kcat/Km (CSCC[C@@H](NC(C)=O)C(=O)O; pH 8, 35 °C): 46.7 ± 1.67 M⁻¹ s⁻¹
B1 (PYCR2 R119C)  kcat/Km (NC(=O)C1=CN([C@@H]2O[C@H](COP(=O)(O)OP(=O)(O)OC[C@H]3O[C@@H](n4cnc5c(N)ncnc54)[C@H](O)[C@@H]3O)[C@@H](O)[C@H]2O)C=CC1; pH 7.5, 37 °C, apparent, cofactor varied, together with: DL-P5C 5000 µM): 440 ± 70 M⁻¹ s⁻¹
gdh E198G/N192S/N97F (Bacillus subtilis)  kcat/Km (NC(=O)c1ccc[n+]([C@@H]2O[C@H](COP(=O)(O)OP(=O)(O)OC[C@H]3O[C@@H](n4cnc5c(N)ncnc54)[C@H](O)[C@@H]3O)[C@@H](O)[C@H]2O)c1; pH 7, 50 °C): 82500 ± 1830 M⁻¹ s⁻¹
B2 (enzyme)  kcat/Km (N=C(N)NCCCC=O; pH 8, 30 °C, per site): 290000 ± 30000 M⁻¹ s⁻¹
B3 (enzyme)  kcat/Km (C[C@@H]1O[C@@H](Oc2ccc([N+](=O)[O-])cc2Cl)[C@@H](O)[C@H](O)[C@@H]1O; pH 6.4, 37 °C): 38500 M⁻¹ s⁻¹
B4 (enzyme)  kcat/Km (OC[C@H]1O[C@@H](n2cnc3c(O)ncnc32)[C@H](O)[C@@H]1O): 170000 M⁻¹ s⁻¹
acsA D449E (Pseudomonas chlororaphis)  kcat/Km (O=C(O)CCC(F)(F)F; pH 7): 117 ± 33.3 M⁻¹ s⁻¹
B5 (enzyme)  kcat/Km (Nc1ncnc2c1ncn2[C@@H]1O[C@H](COP(=O)(O)OP(=O)(O)OP(=O)(O)OP(=O)(O)OP(=O)(O)OC[C@H]2O[C@@H](n3cnc4c(N)ncnc43)[C@H](O)[C@@H]2O)[C@@H](O)[C@H]1O; together with: Mg2+): 14000 M⁻¹ s⁻¹
B6 (enzyme)  kcat/Km (C=C(OP(=O)(O)O)C(=O)O; pH 6.5, 25 °C, together with: 2 mM ADP): 59000 M⁻¹ s⁻¹
ACOD1 (Homo sapiens, UniProt A6NK06)  kcat/Km (O=C(O)/C=C(/CC(=O)O)C(=O)O): 6090 M⁻¹ s⁻¹
enzyme (Staphylococcus aureus, UniProt Q2G294)  kcat/Km (CCC(=O)O; pH 7, 30 °C, apparent): 1400 M⁻¹ s⁻¹
B7 (enzyme)  kcat/Km (CC(=O)N[C@H]1[C@H](Oc2ccc([N+](=O)[O-])cc2)O[C@H](CO)[C@@H](O)[C@@H]1O[C@@H]1O[C@H](CO)[C@H](O)[C@H](O)[C@H]1O; pH 6, 50 °C): 4250 M⁻¹ s⁻¹
enzyme K123A (Homo sapiens, UniProt Q08623)  kcat/Km (O=c1[nH]cc([C@@H]2O[C@H](COP(=O)(O)O)[C@@H](O)[C@H]2O)c(=O)[nH]1; pH 7, 25 °C): 71700 M⁻¹ s⁻¹
mtnA (Bacillus subtilis, UniProt O31662)  kcat/Km (O=P(O)(O)O[C@H]1O[C@H](CO)[C@@H](O)[C@H]1O; pH 7.5, 25 °C): 9.27 M⁻¹ s⁻¹
enzyme (Lactiplantibacillus plantarum, UniProt Q06115)  kcat/Km (C[C@H](CCC(=O)N[C@@H](Cc1ccccc1)C(=O)O)[C@H]1CC[C@H]2[C@@H]3[C@H](O)C[C@@H]4C[C@H](O)CC[C@]4(C)[C@H]3C[C@H](O)[C@]12C; pH 6.2, 37 °C): 13800 ± 2000 M⁻¹ s⁻¹
B8  kcat/Km (O=C(O)C(=O)Cc1ccccc1; pH 7.5, 25 °C, together with: PMP 20 µM, ammonium acetate 10 mM): 340 M⁻¹ s⁻¹
enzyme (Methanosarcina mazei, UniProt Q8PVB1)  kcat/Km (Nc1ncnc2c1ncn2[C@@H]1O[C@H](COP(=O)(O)OP(=O)(O)OP(=O)(O)O)[C@@H](O)[C@H]1O; pH 8.5, 25 °C, apparent, anoxic, together with: L-Thr 10 mM): 410 ± 150 M⁻¹ s⁻¹
B9 (enzyme)  kcat/Km (NC(=O)c1ccc[n+]([C@@H]2O[C@H](COP(=O)(O)OP(=O)(O)OC[C@H]3O[C@@H](n4cnc5c(N)ncnc54)[C@H](O)[C@@H]3O)[C@@H](O)[C@H]2O)c1; pH 7, 30 °C, apparent): 2.8 ± 0.3 M⁻¹ s⁻¹
efeB (Bacillus subtilis, UniProt P39597)  kcat/Km (Nc1c(S(=O)(=O)O)cc(Nc2cccc(S(=O)(=O)CCOS(=O)(=O)O)c2)c2c1C(=O)c1ccccc1C2=O; pH 4, 25 °C, apparent): 35000 M⁻¹ s⁻¹
B10 (enzyme)  kcat/Km (N[C@@H](CS)C(=O)O; pH 8, 25 °C, together with: O2): 110 ± 20 M⁻¹ s⁻¹

Repeated from above:
B7 (enzyme)  kcat/Km (CC(=O)N[C@H]1[C@H](Oc2ccc([N+](=O)[O-])cc2)O[C@H](CO)[C@@H](O)[C@@H]1O[C@@H]1O[C@H](CO)[C@H](O)[C@H](O)[C@H]1O; pH 6, 50 °C): 4250 M⁻¹ s⁻¹
enzyme (Klebsiella pneumoniae, UniProt A6THV5)  kcat/Km (CSCC[C@@H](NC(C)=O)C(=O)O; pH 8, 35 °C): 46.7 ± 1.67 M⁻¹ s⁻¹
